Results gathered from unrelated publications.
Each numbered part is a random draw from the data of one study; scales do not carry over between parts.

Block 1 — method: RNA Bind-n-Seq; molecule type: RNA; matrix: in vitro; concentration: 365 nM; relative to: no-protein control; reading: higher = stronger binding
Target: RNA binding protein fox-1 homolog 2, RRM domain, GST-SBP tag (RBFOX2, Homo sapiens, UniProt O43251-10, residues 100-194)
Notes: natural RNA segment, single round, ends assumed
Shared flanks, not repeated: GGGAGUUCUACAGUCCGACGAUC … UGGAAUUCUCGGGUGCCAA
Construct (chain): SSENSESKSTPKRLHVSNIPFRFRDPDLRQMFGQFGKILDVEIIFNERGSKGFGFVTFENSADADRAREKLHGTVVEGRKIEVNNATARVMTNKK
For `GCCAAGACUAUCAAAGGAACGUAUUGUCGCUUCUGGCUCCUUCCCAGGUGGGCUAGCAUCUGUGAGUUUGCCUCGGCUAGCCUUGCUUCCUACAGCCGCCACUGCUCCUC`, “RBNS enrichment (R)” read 0.466.
`UGCCCUGGAUGUGGGGACCAAGGUACAAUCUAACCAUGGGCCCCCACAAGGCUUCCUGAAAUCAAAUGUUAGGUGUUGAGAGUAGCUGCAGUCUCGGGAUAACUUGUGAG`: “RBNS enrichment (R)” 0.543.
For `CCUGCCACUUUAUUGAGGUGUUAUUAGCACUUUUGUUCAUAAUUCAUAAUUUUGUAAUAAUCUUUAUUUUCCCUUAGCAAACCAAGUAAAAAUAAACUAGUAAAAGAUUA`, “RBNS enrichment (R)” read 0.415.
`CGUGGGGAUCUGGGAGCUGGCACUGUGUACACCUGUCCCUGACUGUCCACGUCUCCCGUGAUUGCCAGUGCUAAUAUGGCUGGGGCUGAGACUUUGCAAGGCCUAAUGCC`: “RBNS enrichment (R)” 0.983.
`CUACAAAGCUGUUCCCUGAUGUCACAGGUCCCUCCGACUCAUUUUCCAGGAGACUUUGCCUUGAGGGUGCCACAGGUGGAGAGAUAAAGAUAGCUUUUGAAGCUUGAACA`: “RBNS enrichment (R)” 0.32.
`GAGGGCGACAUGAAGAUGCACUGCUGCGUGGCCGCCUAUAUCUCCGACUAUGCCUUCUUGGGCACUGCACUGCUGCCUCACCAGUGGCAGCACAAGGUGCACUUCAUGGU` — result for “RBNS enrichment (R)”: 0.531.
`CACCCUUCGGACCCGCUGCCCCUGUGGGAGCACCCUGCUUCAGGAAGCCUCCCUCCCUCCCUCUGCCUCCCUUCCCCAGGACACCAAGAGCGCCCUCUCCUGAGCCCUGG`: “RBNS enrichment (R)” 0.533.
`CUACAGACAUAGCAUUUUUUCAGAGAUGGAAAAUGGCCAUUAGAGUCACUUUCCAUAUUAUACCCUCUAUAAAGUUGUCGAAUUGGAUGGGAGUUCUUUCUAACUAGCCA`: “RBNS enrichment (R)” 0.788.
For `CAGCUCCCAGUCAGACAACAGCCAGAAAUGUCUCCAGACUCUGCCCAGCCUCCCCAGGUAGCCACCCUCGAGACACGACCUCAGAGUCUCUGUGUCUCCUAGAAGCCUGA`, “RBNS enrichment (R)” read 0.433.
`CCACGUGGGCCGCUGAACUGUGUCCAGCUGUGGCAGCAAAGGGAGCGGUCUCCAUUUCCCAGGCUCCUCUGGGGUCUCUGCCUCUGGCCGUGUGUCAAGGAGAUGCCCAC`: “RBNS enrichment (R)” 0.189.
`CAGCCCCUGGAGCCAACAUUUUGGUUGUGGGAGGCUGACCUCUUGCCUGCCUCCUUGUGUGGACAGAGUGGUGAAGACGUAUUCCUCACCUCCUUGCCUUUCAGUAAAUG` — result for “RBNS enrichment (R)”: 0.359.
`CUGACUCCGCCCUUCUUCCUUAGUACGUAGUAUCCAGCAAGCAUUUGCCCCACCUUGUCUUGUUGAUGAACAAUAUUAUGAAGCCUGCAGUCAUUCUCUCUGUACAUCAG` — result for “RBNS enrichment (R)”: 0.844.

Block 2 — method: universal PBM; molecule type: double-stranded DNA, one strand shown; matrix: in vitro; concentration: 600 nM; reading: higher = stronger binding
Target: Sal-like protein 4, full length isoform A (SALL4, Homo sapiens, UniProt Q9UJQ4, residues 1-1053)
UniProt Q9UJQ4, sequence (whole entry, looked up): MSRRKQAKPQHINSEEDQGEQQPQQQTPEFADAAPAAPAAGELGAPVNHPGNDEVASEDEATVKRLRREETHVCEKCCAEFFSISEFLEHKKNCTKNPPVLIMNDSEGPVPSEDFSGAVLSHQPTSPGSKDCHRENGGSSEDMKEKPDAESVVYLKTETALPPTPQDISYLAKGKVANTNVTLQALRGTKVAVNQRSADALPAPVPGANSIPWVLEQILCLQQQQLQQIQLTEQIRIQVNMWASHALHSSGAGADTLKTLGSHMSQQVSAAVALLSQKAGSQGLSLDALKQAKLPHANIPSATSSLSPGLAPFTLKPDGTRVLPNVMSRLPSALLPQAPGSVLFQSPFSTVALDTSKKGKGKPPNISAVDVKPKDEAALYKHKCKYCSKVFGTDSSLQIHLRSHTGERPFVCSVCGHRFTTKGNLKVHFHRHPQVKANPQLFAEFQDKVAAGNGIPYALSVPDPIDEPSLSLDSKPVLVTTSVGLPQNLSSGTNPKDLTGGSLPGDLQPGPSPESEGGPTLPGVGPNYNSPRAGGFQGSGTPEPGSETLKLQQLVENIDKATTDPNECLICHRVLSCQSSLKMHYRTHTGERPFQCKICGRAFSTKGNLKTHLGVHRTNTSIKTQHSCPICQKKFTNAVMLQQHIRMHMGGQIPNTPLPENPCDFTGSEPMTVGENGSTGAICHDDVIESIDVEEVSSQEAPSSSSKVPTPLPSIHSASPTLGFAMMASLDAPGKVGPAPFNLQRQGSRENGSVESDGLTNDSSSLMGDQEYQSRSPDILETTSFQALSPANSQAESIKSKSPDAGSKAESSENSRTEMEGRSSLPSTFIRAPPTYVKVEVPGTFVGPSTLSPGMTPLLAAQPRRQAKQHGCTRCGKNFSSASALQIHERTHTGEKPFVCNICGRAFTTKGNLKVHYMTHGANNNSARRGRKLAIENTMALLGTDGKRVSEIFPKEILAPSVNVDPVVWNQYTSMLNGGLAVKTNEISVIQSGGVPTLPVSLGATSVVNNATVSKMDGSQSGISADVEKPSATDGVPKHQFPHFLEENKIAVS
Notes: 8-mer, flanks averaged, mean of replicates
`AAGTAGTC` has an E-score of -0.00307.
`GAAGCAAA` gave an E-score of 0.158.
With `AATGCAGT` the E-score was 0.0839.
`AAGGGACT` gave an E-score of -0.0122.
For `ACGGGAGT`, the E-score was -0.097.
`TGGACCAA` gave an E-score of -0.00299.
`ATCTACGA` has an E-score of 0.0287.
For `CTTTATCA`, the E-score was 0.251.
The E-score of `CCGGCCGG` is reported as -0.466.
The E-score of `AGATCCGA` is reported as -0.0423.
`AGTACGAG` gave an E-score of 0.152.
With `AATCTACA` the E-score was 0.203.
The E-score of `ATAGGGGC` is reported as -0.153.
With `ATCGGTTA` the E-score was 0.118.
`ATCGTCTG` gave an E-score of -0.135.
`ATCGAGCC` has an E-score of -0.0475.
For `GCAGGCGC`, the E-score was -0.294.
`CTCTCTAC` gave an E-score of 0.0446.
With `TGCGCGAA` the E-score was 0.0539.
For `ACCTCGCA`, the E-score was -0.0873.
For `ATGGAGTC`, the E-score was 0.0633.
`CCCAGGCG` gave an E-score of -0.306.
For `GCCAAGAA`, the E-score was -0.0784.
With `CACAATTC` the E-score was 0.183.
`CTCTAGGA` has an E-score of -0.188.

Block 3 — method: RNA Bind-n-Seq; molecule type: RNA; matrix: in vitro; concentration: 200 nM; notes: whole 134-nt RNA, ends assumed; with: 150 mM KCl; relative to: input library; reading: higher = stronger binding
Target: Fragile X messenger ribonucleoprotein 1, C-terminal low-complexity region (Fmr1, Mus musculus, UniProt P35922)
Shared flanks, not repeated: GGGAGUUCUACAGUCCGACGAUC … UGGAAUUCUCGGGUGUCAAGG
With `CACAGACAACACGCACCCACACAGACACAGAGGGAAGGGGUUGGGAUGGGGACAGGGUGCACAGCAGGGCGGCGUAGGACCCCAGCCCCU` the log2 enrichment was 1.09.
`UCCUCAAGUCCUGUGCUACACAUCGUAUGUACCGAAUCGGAGGAGGAAAGGAAAGUAUUAUGUUACGCCGUUCGGAUCUGCACUUCCAGC` gave a log2 enrichment of -0.628.
The log2 enrichment of `CUAGAGAGCUGUAGUACACAUGGAUGAACGACGAGAAGAACAAAUUGUACAGUUACUGAAUUCUGUUCAAGCGAAGAAUGAUAAAGAGUC` is reported as -0.198.
`AGUCCUGUGCUACACAUCGUAUGUACCGAAUCGGGGCCCCGGGCCCCGGGGCCCCGGGAAAGUAUUAUGUUACGCCGUUCGGAUCUGCAC` gave a log2 enrichment of -1.06.
With `UAACUUUAGAGGAGGAUCUAAUGGAUAUGGCAGUGGACGUGGAUUUGGGGAUGGCUAUAAUGGGUAUGGAGGAGGACCUGGAGGUGGCAA` the log2 enrichment was 0.321.
`UCCUGUGCUACACAUCGUAUGUACCGAAUCGGGGUUUUUGGGGUUUGGGGUUUUUGGGGAAAGUAUUAUGUUACGCCGUUCGGAUCUGCA` gave a log2 enrichment of 0.999.
`CUGUGCUACACAUCGUAUGUACCGAAUCGGGUUUUUUUGGGUUUUUUUGGGAAAAAAAGGGAAAGUAUUAUGUUACGCCGUUCGGAUCUG` gave a log2 enrichment of -1.3.
For `GUCCUGUGCUACACAUCGUAUGUACCGAAUCGGGUUUUUUGGUUUUUUGGGUUUUUUGGAAAGUAUUAUGUUACGCCGUUCGGAUCUGCA`, the log2 enrichment was -0.668.
`UCCUGUGCUACACAUCGUAUGUACCGAAUCGGUUUUUUUGGAAAAAAAGGUUUUUUUGGAAAGUAUUAUGUUACGCCGUUCGGAUCUGCA` has a log2 enrichment of -0.858.
`CAAGUCCUGUGCUACACAUCGUAUGUACCGAAUCGGUUUUUGGUUUGGUUUUUGGAAAGUAUUAUGUUACGCCGUUCGGAUCUGCACUUC` gave a log2 enrichment of -0.718.
The log2 enrichment of `ACCAUGCAGGUGGGCAUCUUUGGGAAGUGGGGCAAGGGGGGUAUAGGGAGGGGGGUAACACUUUGGGAACAGGUGGUCCCAGGUCGUUUC` is reported as 0.654.
The log2 enrichment of `ACCAUGCAGGUGGGCAUCUUUGGGAAGUGGGGCAAGGGGGGGAUAGGGAGGGGGGUAACACUUUGGGAACAGGUGGUACCAGGUCGUUUC` is reported as 0.297.
The log2 enrichment of `AAGUCCUGUGCUACACAUCGUAUGUACCGAAUCGGAAAAGGAAAAGGGAAAAGGGGAAAGUAUUAUGUUACGCCGUUCGGAUCUGCACUU` is reported as -0.506.
`GUCCUGUGCUACACAUCGUAUGUACCGAAUCGGGCCCCCGGGGCCCCCGGGCCCCCGGGAAAGUAUUAUGUUACGCCGUUCGGAUCUGCA` has a log2 enrichment of -0.763.

Block 4 — method: aptamer microarray, sandwich; molecule type: DNA with 2'F-ANA; matrix: in vitro; concentration: 200 nM; with: Cy3 exosite-II aptamer, 400 nM; reading: higher = stronger binding; sequence: GGTTGGTGTGGTTGG
Target: Prothrombin, mature alpha-thrombin (F2, Homo sapiens, UniProt P00734)
Notes: whole 15-mer aptamer, many near background
`2'F-ANA at 4 5 6 9 10 13 15` — result for “mean fluorescence intensity”: 85.3 a.u.
For `2'F-ANA at 1 3 5 7 8 10 12 13 15`, “mean fluorescence intensity” read 48.1 a.u.
`2'F-ANA at 2 3 4 5 6 11 12 13` — result for “mean fluorescence intensity”: 109 a.u.
`2'F-ANA at 1 3 6 9 11 12 14`: “mean fluorescence intensity” 89.7 a.u.
`2'F-ANA at 1 4 5 7 8 12 13`: “mean fluorescence intensity” 86.2 a.u.
`2'F-ANA at 1 2 3 9 13 14 15` — result for “mean fluorescence intensity”: 105 a.u.
`2'F-ANA at 1 4 9 10 11 13 14` — result for “mean fluorescence intensity”: 46.1 a.u.
`2'F-ANA at 2 3 4 5 9 10 14`: “mean fluorescence intensity” 63.7 a.u.
`2'F-ANA at 3 4 5 7 10 12 13` — result for “mean fluorescence intensity”: 52.2 a.u.
For `2'F-ANA at 2 3 4 5 6 7 8 9 12 13 14 15`, “mean fluorescence intensity” read 56.9 a.u.
Under “mean fluorescence intensity”, `2'F-ANA at 1 6 8 9 10 11 12 13 14` is recorded as 110 a.u.
`2'F-ANA at 3 6 7 9 11 12 14 15` — result for “mean fluorescence intensity”: 477 a.u.
`2'F-ANA at 1 3 4 5 7 8 10 11 12 14`: “mean fluorescence intensity” 48.9 a.u.
Under “mean fluorescence intensity”, `2'F-ANA at 1 3 5 6 7 9 11` is recorded as 61.7 a.u.
`2'F-ANA at 1 2 5 6 8 9 10 12 13 14 15` — result for “mean fluorescence intensity”: 60 a.u.
`2'F-ANA at 1 3 7 8 11 12 13 14 15`: “mean fluorescence intensity” 134 a.u.
Under “mean fluorescence intensity”, `2'F-ANA at 2 3 5 7 8 9 11 13 14 15` is recorded as 53.9 a.u.
`2'F-ANA at 2 5 7 8 10 12 15` — result for “mean fluorescence intensity”: 51.3 a.u.
Under “mean fluorescence intensity”, `2'F-ANA at 1 2 3 4 5 6 7 8 11 12 13 14` is recorded as 49.7 a.u.
`2'F-ANA at 1 3 6 7 9 10 11 13 15` — result for “mean fluorescence intensity”: 71.7 a.u.
`2'F-ANA at 2 3 4 5 8 9 12 15`: “mean fluorescence intensity” 224 a.u.
Under “mean fluorescence intensity”, `2'F-ANA at 1 2 5 7 8 10 11 12` is recorded as 48.1 a.u.
Under “mean fluorescence intensity”, `2'F-ANA at 4 5 6 7 11 12 14` is recorded as 45 a.u.
Under “mean fluorescence intensity”, `2'F-ANA at 2 6 10 11` is recorded as 144 a.u.
Under “mean fluorescence intensity”, `2'F-ANA at 3 5 6 8 11 12 15` is recorded as 206 a.u.

A few entries again (block 2):
The E-score of `ATAGGGGC` is reported as -0.153.
`AAGGGACT` gave an E-score of -0.0122.
`CCCAGGCG` gave an E-score of -0.306.
`AAGTAGTC` has an E-score of -0.00307.
The E-score of `AGATCCGA` is reported as -0.0423.
